Measurements gathered from unrelated publications.
Protocols differ between the studies behind these lines. Numbers after ± are the reported error.

CCNc1cc2[o+]c3cc(NCC)c(C)cc3c(-c3ccccc3C(=O)OCCOCC[18F])c2cc1C  tissue uptake (rat, muscle; 30 min): 0.12 ± 0.01 %ID/g
N=C(N)NCc1ccc(C(=O)NCCCC[C@H](NC(=O)N[C@@H](CCC(=O)O)C(=O)O)C(=O)O)cc1[211At]  tissue uptake (SCID mouse, PC-3 xenografts, bone; 2 h): 0.5 ± 0.05 %ID/g
CC[C@H](C)[C@H](N)C(=O)N[C@@H](CO)C(=O)N[C@@H](Cc1ccc(O)cc1)C(=O)NCC(=O)NCC(=O)N[C@@H](C)C(=O)N[C@@H](CC(=O)O)C(=O)N[C@@H](Cc1ccc(O)cc1)C(=O)N[C@@H](CCCCN)C(=O)O  immobility time (forced swim test; ICR mice; intrathecal, 30 nmol, 30 min before test, minutes 2 to 6): 140 ± 6.5 s
CC(C)[C@H](NC(=O)CNC(=O)[C@H](CCC(N)=O)NC(=O)[C@H](C)N)C(=O)O  subjects with Probably related AE (healthy male volunteers; intravenous, 15 mg/kg/h, 2 h, together with: LPS 2 ng/kg): 0%
[11CH3]n1c(=O)n(CCCO)c(=O)c2c1nc(Oc1cccc(OC(F)(F)F)c1)n2Cc1ccc(Cl)cc1  tracer uptake (ex vivo biodistribution; Sprague Dawley rat, muscle; 60 min post injection): 0.36 ± 0.05 %ID/g
[2H]C([2H])([2H])C([2H])([2H])C([2H])([2H])OC(C(=O)OC1CCNCC1)(c1ccccc1)c1ccccc1  adverse drug reactions (refers to: any; healthy Japanese male; oral, 8 mg once daily, 16 days): 0%
CN1CCN(c2ncc(-c3ccc4c(Nc5ccc(OCc6cccc(F)c6)c(Cl)c5)ccnc4c3)cn2)CC1  tolerability (mice; oral, 50 mg/kg twice daily): not toxic
CN(C)c1ccc(C(=O)NCCCCN2CCN(c3ccccc3O[11CH3])CC2)cc1  uptake ratio (male Sprague Dawley rat, liver; iv, dose not given, together with: cyclosporin A pretreatment; reference: cyclosporin A over untreated): 0.96
COc1ccc(C)cc1NC(=O)OC1CC2CCCC(C1)N2Cc1ccc(CC[18F])cc1 (centres unmarked)  tracer uptake (mouse, blood; intravenous, 5 min, tumour-bearing): 1.88 %ID/g
CN[C@](C)(C[18F])C(=O)O  tracer uptake (mouse, muscle; 1 h, tumour-bearing): 1.1 %ID/g
CSCC[C@H](NC(=O)CNC(=O)[C@H](CC(=O)O)NC(=O)[C@@H](NC(=O)[C@@H](NC(=O)[C@@H](NC(=O)CNC(=O)[C@H](CCC(N)=O)NC(=O)[C@H](CCSC)NC(=O)[C@H](CC(=O)O)NC(=O)[C@H](C)NC(=O)[C@H](C)NC(=O)[C@@H](NC(=O)[C@H](CO)NC(=O)[C@@H](N)CC(C)C)[C@@H](C)O)C(C)C)C(C)C)[C@@H](C)O)C(=O)N[C@@H](C)C(=O)N[C@@H](CO)C(=O)NCC(=O)N[C@@H](CC(C)C)C(=O)N[C@@H](CC(=O)O)C(=O)N[C@@H](CCCCN)C(=O)N[C@@H](CC(=O)O)C(=O)N[C@@H](Cc1ccc(O)cc1)C(=O)N[C@@H](CC(C)C)C(=O)N[C@@H](CCCCN)C(=O)N1CCC[C@H]1C(=O)N[C@@H](CC(=O)O)C(=O)N[C@@H](CC(=O)O)C(=O)O  AUC(0-t) (human, serum; intravenous, 3.33 mg/kg, patients, infusion): 2.83 µg·h/mL
O=C([O-])C[N+]12CC(=O)[O][Re-2]1[O]P(=O)([O-])C2.[C-]#[O+].[C-]#[O+].[C-]#[O+] (centres unmarked)  isomer fraction at equilibrium (HPLC; aqueous solution; 1 d, pH 9, room temperature): 61%
CSCC[C@@H]1NC(=O)[C@@H]2CSSC[C@H](NC(=O)[C@H](CO)NC(=O)[C@H](C)N)C(=O)N[C@@H](CCCNC(=N)N)C(=O)N[C@@H]([C@@H](C)O)C(=O)N3CCC[C@H]3C(=O)N[C@@H](CCCCN)C(=O)N[C@@H](CC(=O)O)C(=O)N[C@H]3CSSC[C@H](NC(=O)[C@H](CCCCN)NC(=O)[C@H](CCCNC(=N)N)NC(=O)[C@H](CC(N)=O)NC1=O)C(=O)N[C@@H](CCCCN)C(=O)N[C@H]1CSSC[C@H](NC(=O)[C@@H]4CCCN4C(=O)[C@H](CC(=O)O)NC(=O)[C@H](C)NC3=O)C(=O)N[C@@H](C)C(=O)N[C@@H](CCCCN)C(=O)N[C@@H](CCC(=O)O)C(=O)N[C@@H]([C@@H](C)O)C(=O)NCC(=O)N[C@@H](CSSC[C@@H](C(N)=O)NC(=O)[C@H](CCCNC(=N)N)NC(=O)[C@H](CC(N)=O)NC1=O)C(=O)N1CCC[C@H]1C(=O)N[C@@H](Cc1ccc(O)cc1)C(=O)NCC(=O)N[C@@H](CCCCN)C(=O)N2  direct bilirubin (DA rat, pristane-induced arthritis, serum; subcutaneous, single 0.1 mg/kg at onset, end of 21-day trial): 0.002 mg/dL
COc1cc(-c2cncc(-c3ccc(N4CCN([11CH3])CC4)cc3)c2C)cc(OC)c1OC  time to peak brain SUV (dynamic PET; Sprague-Dawley rats male, whole brain; intravenous): ≤ 1 min
CC[C@H](C)C(=O)N1CCC(NC(=O)Nc2ccc(OC(F)(F)F)c(F)c2)CC1  subjects with UTI TEAE (healthy volunteers; oral, 8 mg single dose): 0%
CC[C@H](C)[C@H](NC(=O)[C@@H](Cc1ccccc1)NC)C(=O)N[C@@H](CO)C(=O)N[C@H](CCCNC(=N)N)C(=O)N[C@@H](C(=O)N[C@H](C(=O)N[C@@H](CO)C(=O)N[C@H]1C(=O)N[C@@H](C)C(=O)N[C@@H](CC(C)C)C(=O)N[C@@H]([C@@H](C)CC)C(=O)O[C@H]1C)[C@@H](C)CC)[C@@H](C)CC  acetonitrile share for dissolution (acetonitrile-water; TFA salt): ~35%
CCCCCCCCCCCCCC(=O)N[C@@H](Cc1ccccc1)C(=O)N[C@@H](CCC(=O)O)C(=O)N[C@@H](CCC(=O)O)C(=O)N[C@@H](CCC(=O)O)C(=O)N[C@@H](CCCNC(=N)N)C(=O)N[C@@H](CC(C)C)C(=O)O  storage stability (lyophilized powder; 22 °C): ≥ 2 weeks
Cc1ccc(C(C)C)cc1.[Cl][Ru+].[O-]c1ccccc1C=NCCNc1ccnc2cc(Cl)ccc12  distribution coefficient D (shake-flask method; water/n-octanol; pH 6.6): 1.99 ± 0.1
CCN(CC)CCOc1ccc(-c2nnn(Cc3ccc(OC)cc3)c2N)cc1  stability (beagle dogs, plasma; 120 min): stable
CC(C)[C@H](NC(=O)CNC(=O)[C@H](CCC(N)=O)NC(=O)[C@H](C)N)C(=O)O  subjects with adverse events (serious adverse event; human; 30 mg/kg, 3 days, thrice daily dosing): 0%
CC(C)C[C@H](NC(=O)[C@H](CCCCN)NC(=O)[C@H](CCC(=O)O)NC(=O)[C@H](C)NC(=O)[C@@H](NC(=O)[C@H](CCCCN)NC(=O)[C@H](CC(=O)O)NC(=O)[C@H](Cc1ccc(O)cc1)NC(=O)[C@H](Cc1ccccc1)NC(=O)[C@H](C)NC(=O)[C@H](CCCCN)NC(=O)[C@H](CC(C)C)NC(=O)[C@H](Cc1c[nH]c2ccccc12)NC(=O)[C@@H](N)CC(=O)O)C(C)C)C(=O)N[C@@H](CCCCN)C(=O)N[C@@H](CCC(=O)O)C(=O)N[C@@H](C)C(=O)N[C@@H](Cc1ccccc1)C(=O)N1CCC[C@H]1C(=O)N[C@@H](CC(=O)O)C(=O)N[C@@H](Cc1c[nH]c2ccccc12)C(=O)N[C@@H](C)C(=O)N[C@@H](CCCCN)C(=O)N[C@@H](C)C(=O)N[C@@H](C)C(=O)N[C@@H](Cc1ccc(O)cc1)C(=O)N[C@@H](CC(=O)O)C(=O)N[C@@H](CCCCN)C(=O)N[C@@H](C)C(=O)N[C@@H](C)C(=O)N[C@@H](CCC(=O)O)C(=O)N[C@@H](CCCCN)C(=O)N[C@@H](C)C(=O)N[C@@H](CCCCN)C(=O)N[C@@H](CCC(=O)O)C(=O)N[C@@H](C)C(=O)N[C@@H](C)C(=O)O  AUC(0-last) (cynomolgus monkey female, plasma; intravenous infusion, 25 mg/kg every other day, day 27): 2470 µg·h/mL
C/C=C/C=C/C/C=C/CCCCCCCc1cccc(O)c1O  tissue concentration (female Kunming mice, tumour-bearing, tumor; intravenous, 10 mg/kg, 2 h): 49200 ± 3630 ng/g
CN(C)C(CNC(=O)Nc1cc(C(F)(F)F)ccc1N1CCOCC1)c1ccncc1 (centres unmarked)  serum GGT (mouse, serum; intraperitoneal, 240 mg/kg single dose): < 3 U/L
COc1ccc(NC(=O)Cn2c(=O)c3ccccc3n(CC(=O)Nc3cc([125I])c(OC)cc3OC)c2=O)cc1  tracer uptake (rat, spleen; intravenous, 5 min): 0.29 %ID/g
CC[C@H](C)[C@H](NC(=O)[C@H](C)NC(=O)CNC(=O)[C@@H](N)CCSC)C(=O)N[C@@H](C)C(=O)N[C@@H](CCCCN)C(=O)N[C@@H](CC(C)C)C(=O)N[C@H](C(=O)N[C@@H](C)C(=O)N[C@@H](CCCCN)C(=O)N[C@@H](Cc1ccccc1)C(=O)NCC(=O)N[C@@H](Cc1c[nH]c2ccccc12)C(=O)N1CCC[C@H]1C(=O)N[C@@H](CCCNC(=N)N)C(=O)N[C@H](C(=O)N[C@@H](CCCCN)C(=O)N[C@@H](CCCCN)C(=O)N[C@@H](Cc1ccccc1)C(=O)N[C@@H](Cc1ccc(O)cc1)C(=O)N[C@@H](CCCCN)C(=O)N[C@@H](CCC(N)=O)C(=O)N[C@H](C(=O)N[C@@H](CCSC)C(=O)N[C@@H](CCC(N)=O)C(=O)N[C@@H](Cc1ccccc1)C(=O)N[C@H](C(=O)NCC(=O)N[C@@H](CCC(N)=O)C(=O)NCC(=O)N[C@@H](Cc1c[nH]c2ccccc12)C(=O)N[C@H](C(=O)N[C@H](C(=O)N[C@@H](CC(=O)O)C(=O)N[C@@H](CCC(N)=O)C(=O)N[C@H](C(=O)N[C@@H](CCC(=O)O)C(=O)N[C@@H](CCCCN)C(=O)N[C@@H](Cc1c[nH]c2ccccc12)C(=O)N[C@@H](CC(C)C)C(=O)N[C@@H](CCCCN)C(=O)N[C@@H](CCCNC(=N)N)C(=O)N[C@@H](Cc1c[nH]cn1)C(=O)O)[C@@H](C)CC)[C@@H](C)CC)[C@@H](C)O)[C@@H](C)CC)[C@@H](C)CC)[C@@H](C)CC)C(C)C  Tm (thermal unfolding, far-UV CD; 10 mM sodium phosphate; 5-20 µM, pH 7.2): 47.6 ± 0.3 °C
CC[C@H](C)[C@H](NC(=O)[C@@H](N)C(C)C)C(=O)N[C@@H](Cc1c[nH]cn1)C(=O)N[C@@H](CCCNC(=N)N)C(=O)N[C@@H](C)C(=O)NCC(=O)N[C@@H](CC(C)C)C(=O)N[C@@H](CCC(N)=O)C(=O)N[C@@H](Cc1ccccc1)C(=O)N1CCC[C@H]1C(=O)N[C@H](C(=O)NCC(=O)N[C@@H](CCCNC(=N)N)C(=O)N[C@H](C(=O)N[C@@H](Cc1c[nH]cn1)C(=O)N[C@@H](CCCNC(=N)N)C(=O)N[C@@H](CC(C)C)C(=O)N[C@@H](CC(C)C)C(=O)N[C@@H](CCCNC(=N)N)C(=O)N[C@@H](CCCCN)C(N)=O)C(C)C)C(C)C  HD10 (haemolysis; human red blood cells; 1 h): 64 µM
C=C(C)C12OC3(c4ccccc4)OC1C1C(O)C(Br)(CO)C(O)C4(O)C(=O)C(C)=CC4C1(O3)C(C)C2OC(=O)c1ccccc1 (centres unmarked)  oral bioavailability (ICR mice, plasma; oral, 1 mg/kg): 64.1%
O=C(O)CC[C@H](NC(=O)O[C@@H](CCCCNC(=O)c1ccc([18F])cc1)C(=O)O)C(=O)O  tissue uptake (mouse, PC-3 PIP/flu xenografts, bone; 30 min): 2.05 ± 2.39 %ID/g
COC(=O)C[C@](O)(CCCC(C)(C)OC(C)=O)C(=O)O[C@@H]1C(OC)=C[C@]23CCCN2CCc2cc4c(cc2[C@H]13)OCO4  concentration (CD1 mice, plasma; subcutaneous, 1 mg/kg, 8 h): 2.57 ng/mL

Repeated from above:
[11CH3]n1c(=O)n(CCCO)c(=O)c2c1nc(Oc1cccc(OC(F)(F)F)c1)n2Cc1ccc(Cl)cc1  tracer uptake (ex vivo biodistribution; Sprague Dawley rat, muscle; 60 min post injection): 0.36 ± 0.05 %ID/g
[2H]C([2H])([2H])C([2H])([2H])C([2H])([2H])OC(C(=O)OC1CCNCC1)(c1ccccc1)c1ccccc1  adverse drug reactions (refers to: any; healthy Japanese male; oral, 8 mg once daily, 16 days): 0%
CN1CCN(c2ncc(-c3ccc4c(Nc5ccc(OCc6cccc(F)c6)c(Cl)c5)ccnc4c3)cn2)CC1  tolerability (mice; oral, 50 mg/kg twice daily): not toxic
